{"data": "Values quoted from earlier work, collected from citations in different studies", "note": "± gives the spread as reported.", "sequence of UniProt Q13153 (whole entry, looked up)": "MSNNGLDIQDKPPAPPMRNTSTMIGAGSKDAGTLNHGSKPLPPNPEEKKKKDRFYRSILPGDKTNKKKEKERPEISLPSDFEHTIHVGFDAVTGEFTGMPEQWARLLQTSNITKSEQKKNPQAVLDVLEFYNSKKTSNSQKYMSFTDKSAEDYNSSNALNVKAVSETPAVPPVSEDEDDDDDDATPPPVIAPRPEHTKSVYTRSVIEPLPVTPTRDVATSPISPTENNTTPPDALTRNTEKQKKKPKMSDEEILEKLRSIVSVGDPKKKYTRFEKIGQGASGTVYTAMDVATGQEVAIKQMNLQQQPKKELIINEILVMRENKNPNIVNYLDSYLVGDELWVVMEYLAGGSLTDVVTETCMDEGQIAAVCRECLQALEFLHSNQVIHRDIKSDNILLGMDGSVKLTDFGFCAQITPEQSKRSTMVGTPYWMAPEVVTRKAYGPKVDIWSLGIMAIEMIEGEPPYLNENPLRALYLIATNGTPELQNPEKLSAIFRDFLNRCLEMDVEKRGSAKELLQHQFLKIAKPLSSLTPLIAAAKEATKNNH"}
{"SMILES": "C#C[C@]1(O)CC[C@H]2[C@@H]3CCC4=CC(=NO)CC[C@@H]4[C@H]3CC[C@@]21CC (mixture of isomers)", "test system": "human", "conditions": "intravenous", "endpoint": "clearance", "value": "7.89 L/h"}
{"SMILES": "Cc1ccc([C@@H]2O[C@H](CO)[C@@H](O)[C@H](O)[C@H]2O)cc1Cc1ccc(-c2ccc(F)cc2)s1", "test system": "human, preserved kidney function", "conditions": "300 mg, steady state, mean", "endpoint": "clearance", "value": "16.4 L/h"}
{"SMILES": "COc1cc2c3c(n(CCCN4CCOCC4)c(=O)c2cc1OC)-c1cc2c(cc1C3=O)OCO2", "test system": "human patients", "endpoint": "clearance", "value": "1.54 L/h/m²"}
{"SMILES": "Nc1cc(C(F)(F)F)c(-c2nc(N3CCOCC3)nc(N3CCOCC3)n2)cn1", "tested on": "Serine/threonine-protein kinase PAK 1 (PAK1, Homo sapiens, UniProt Q13153)", "test": "enzyme activity", "conditions": "10 µM", "how to read": "relative to: untreated", "endpoint": "remaining activity", "value": "94%"}
{"SMILES": "Cn1c(=O)c2c(ncn2C)n(C)c1=O", "test system": "human", "endpoint": "clearance", "value": "5.3 L/h"}
{"SMILES": "COc1ccc(C[C@@H](C)[C@@H](C)Cc2ccc(OC)c(OC)c2)cc1OC", "test system": "human", "conditions": "intravenous, dose not given", "endpoint": "clearance", "value": "54.4 ± 20.8 L/h"}
{"SMILES": "CCCCNC(=O)NS(=O)(=O)c1ccc(C)cc1", "test system": "human", "endpoint": "clearance", "value": "0.22 mL/min/kg"}
{"SMILES": "NC(=O)CC[C@@H]1NC(=O)[C@H](Cc2ccccc2)NC(=O)[C@H](Cc2ccc(O)cc2)NC(=O)CCSSC[C@@H](C(=O)N2CCC[C@H]2C(=O)N[C@H](CCCN=C(N)N)C(=O)NCC(N)=O)NC(=O)[C@H](CC(N)=O)NC1=O", "test system": "human, von Willebrand disease patients", "conditions": "intravenous, 0.3 µg/kg", "endpoint": "clearance", "value": "9.43 L/h"}
{"SMILES": "O=C(O)Cc1ccccc1Nc1c(Cl)cccc1Cl", "test system": "human", "endpoint": "clearance", "value": "3.6 mL/min/kg"}
{"SMILES": "COCCc1ccc(OCC(O)CNC(C)C)cc1 (stereo not drawn)", "test system": "human", "endpoint": "clearance", "value": "275 L/h"}
{"SMILES": "CCc1cc(/C(C)=N/OCc2ccc(C3CCCCC3)c(C(F)(F)F)c2)ccc1CN1CC(C(=O)O)C1", "test": "population PK", "test system": "human, CYP2C9*2/*3", "endpoint": "clearance", "value": "1.72 L/h"}
{"SMILES": "CN/C(=N/CCSCc1nc[nH]c1C)NC#N", "test system": "human", "endpoint": "clearance", "value": "5.26 mL/min/kg"}
{"note": "Some of these lines once more:"}
{"SMILES": "COc1ccc(C[C@@H](C)[C@@H](C)Cc2ccc(OC)c(OC)c2)cc1OC", "test system": "human", "conditions": "intravenous, dose not given", "endpoint": "clearance", "value": "54.4 ± 20.8 L/h"}
{"SMILES": "CCCCNC(=O)NS(=O)(=O)c1ccc(C)cc1", "test system": "human", "endpoint": "clearance", "value": "0.22 mL/min/kg"}
